# Published values pooled from the literature.
# The chains behind the UniProt entries cited, without tags or fusion partners. Residues count along the entry.
# UniProt P03372, whole entry: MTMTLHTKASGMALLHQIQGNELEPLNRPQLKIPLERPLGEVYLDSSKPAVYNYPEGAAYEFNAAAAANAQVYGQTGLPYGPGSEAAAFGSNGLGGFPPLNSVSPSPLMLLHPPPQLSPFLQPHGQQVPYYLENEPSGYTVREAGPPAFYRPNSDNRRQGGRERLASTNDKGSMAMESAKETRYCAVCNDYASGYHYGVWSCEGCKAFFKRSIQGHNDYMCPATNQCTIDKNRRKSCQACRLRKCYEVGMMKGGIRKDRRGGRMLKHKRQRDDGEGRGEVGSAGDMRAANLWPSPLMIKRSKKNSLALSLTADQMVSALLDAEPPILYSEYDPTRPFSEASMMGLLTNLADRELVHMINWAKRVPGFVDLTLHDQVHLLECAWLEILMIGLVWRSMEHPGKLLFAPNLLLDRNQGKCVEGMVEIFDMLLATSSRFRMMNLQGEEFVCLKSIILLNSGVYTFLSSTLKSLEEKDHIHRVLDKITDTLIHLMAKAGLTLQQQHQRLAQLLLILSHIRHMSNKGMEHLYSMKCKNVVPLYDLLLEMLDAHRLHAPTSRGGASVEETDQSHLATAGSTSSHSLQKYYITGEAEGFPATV
# UniProt P05067, whole entry, looked up: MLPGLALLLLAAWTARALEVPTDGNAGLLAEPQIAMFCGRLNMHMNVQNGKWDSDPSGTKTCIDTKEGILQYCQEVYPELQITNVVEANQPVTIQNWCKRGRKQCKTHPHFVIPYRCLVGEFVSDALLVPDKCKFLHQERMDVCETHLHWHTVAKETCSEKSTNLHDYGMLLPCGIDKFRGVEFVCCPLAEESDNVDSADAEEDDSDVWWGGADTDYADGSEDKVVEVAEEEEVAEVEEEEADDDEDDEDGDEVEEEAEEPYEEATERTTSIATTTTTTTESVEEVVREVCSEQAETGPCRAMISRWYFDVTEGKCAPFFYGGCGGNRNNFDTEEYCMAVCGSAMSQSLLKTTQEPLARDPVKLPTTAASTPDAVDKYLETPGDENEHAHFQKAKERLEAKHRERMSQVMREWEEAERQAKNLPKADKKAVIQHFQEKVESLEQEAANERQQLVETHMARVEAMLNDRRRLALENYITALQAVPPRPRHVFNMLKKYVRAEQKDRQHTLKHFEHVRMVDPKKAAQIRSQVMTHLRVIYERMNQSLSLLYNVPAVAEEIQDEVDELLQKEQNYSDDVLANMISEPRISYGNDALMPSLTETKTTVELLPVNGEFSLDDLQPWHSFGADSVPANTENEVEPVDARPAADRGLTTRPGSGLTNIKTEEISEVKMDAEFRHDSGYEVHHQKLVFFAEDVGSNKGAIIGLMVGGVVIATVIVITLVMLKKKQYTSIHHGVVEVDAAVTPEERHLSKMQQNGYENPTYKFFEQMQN
# UniProt P05067, 672-713 limits assumed: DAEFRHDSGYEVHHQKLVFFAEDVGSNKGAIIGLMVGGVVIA
# UniProt P26038, whole entry, looked up: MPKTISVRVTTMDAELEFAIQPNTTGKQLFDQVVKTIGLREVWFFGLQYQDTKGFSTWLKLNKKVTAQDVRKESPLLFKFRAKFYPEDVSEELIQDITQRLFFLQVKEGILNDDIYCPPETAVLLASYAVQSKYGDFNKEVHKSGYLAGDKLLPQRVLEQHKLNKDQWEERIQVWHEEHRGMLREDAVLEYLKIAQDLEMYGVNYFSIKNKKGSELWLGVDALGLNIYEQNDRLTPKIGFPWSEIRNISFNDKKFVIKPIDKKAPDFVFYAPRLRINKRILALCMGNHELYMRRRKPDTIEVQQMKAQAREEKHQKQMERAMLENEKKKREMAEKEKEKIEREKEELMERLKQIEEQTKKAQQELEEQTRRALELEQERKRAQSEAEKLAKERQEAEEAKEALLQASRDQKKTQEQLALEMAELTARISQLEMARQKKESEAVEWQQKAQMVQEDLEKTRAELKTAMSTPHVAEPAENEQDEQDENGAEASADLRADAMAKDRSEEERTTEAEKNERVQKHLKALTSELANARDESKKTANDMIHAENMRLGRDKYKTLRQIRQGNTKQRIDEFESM
# UniProt Q9NRM7, whole entry: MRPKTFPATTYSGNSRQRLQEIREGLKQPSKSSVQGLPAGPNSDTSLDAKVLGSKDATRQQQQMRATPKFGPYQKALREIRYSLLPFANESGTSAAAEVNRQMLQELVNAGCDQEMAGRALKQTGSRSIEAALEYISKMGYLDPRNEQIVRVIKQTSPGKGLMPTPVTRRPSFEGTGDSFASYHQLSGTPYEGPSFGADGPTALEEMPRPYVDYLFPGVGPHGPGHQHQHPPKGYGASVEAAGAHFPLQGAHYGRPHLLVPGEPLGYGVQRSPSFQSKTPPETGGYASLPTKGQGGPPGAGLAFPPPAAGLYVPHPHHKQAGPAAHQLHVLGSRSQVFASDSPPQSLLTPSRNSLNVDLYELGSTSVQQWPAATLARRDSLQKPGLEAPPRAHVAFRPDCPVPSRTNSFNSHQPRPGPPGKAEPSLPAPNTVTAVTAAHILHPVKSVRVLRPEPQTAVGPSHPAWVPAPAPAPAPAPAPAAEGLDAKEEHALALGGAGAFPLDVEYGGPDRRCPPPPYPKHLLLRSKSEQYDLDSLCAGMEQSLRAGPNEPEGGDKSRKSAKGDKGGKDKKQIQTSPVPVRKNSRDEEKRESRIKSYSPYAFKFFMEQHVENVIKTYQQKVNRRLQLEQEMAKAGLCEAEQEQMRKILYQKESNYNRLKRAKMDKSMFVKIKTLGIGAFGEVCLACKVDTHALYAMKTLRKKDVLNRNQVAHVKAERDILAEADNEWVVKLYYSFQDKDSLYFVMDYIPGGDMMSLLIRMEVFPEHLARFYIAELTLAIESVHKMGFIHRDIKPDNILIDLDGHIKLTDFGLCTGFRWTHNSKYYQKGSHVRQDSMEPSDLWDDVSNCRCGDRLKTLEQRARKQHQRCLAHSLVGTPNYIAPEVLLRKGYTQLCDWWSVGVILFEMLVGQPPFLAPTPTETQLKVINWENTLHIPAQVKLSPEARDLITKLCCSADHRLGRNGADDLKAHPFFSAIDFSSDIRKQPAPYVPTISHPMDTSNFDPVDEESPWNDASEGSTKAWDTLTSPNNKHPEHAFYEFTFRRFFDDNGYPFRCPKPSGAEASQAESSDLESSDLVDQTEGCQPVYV
# UniProt O75874, whole entry R132H: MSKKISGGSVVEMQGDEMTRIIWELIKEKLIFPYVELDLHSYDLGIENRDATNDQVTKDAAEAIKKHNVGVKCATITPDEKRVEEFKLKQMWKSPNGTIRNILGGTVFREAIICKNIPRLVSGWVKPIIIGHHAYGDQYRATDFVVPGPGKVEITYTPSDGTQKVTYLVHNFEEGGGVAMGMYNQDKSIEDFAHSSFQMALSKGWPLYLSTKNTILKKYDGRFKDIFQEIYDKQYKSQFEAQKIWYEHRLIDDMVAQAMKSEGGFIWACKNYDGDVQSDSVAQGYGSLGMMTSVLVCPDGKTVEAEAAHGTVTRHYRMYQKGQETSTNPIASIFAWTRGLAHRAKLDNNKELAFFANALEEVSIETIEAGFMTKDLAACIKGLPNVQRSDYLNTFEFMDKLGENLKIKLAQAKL
# UniProt P49841, whole entry: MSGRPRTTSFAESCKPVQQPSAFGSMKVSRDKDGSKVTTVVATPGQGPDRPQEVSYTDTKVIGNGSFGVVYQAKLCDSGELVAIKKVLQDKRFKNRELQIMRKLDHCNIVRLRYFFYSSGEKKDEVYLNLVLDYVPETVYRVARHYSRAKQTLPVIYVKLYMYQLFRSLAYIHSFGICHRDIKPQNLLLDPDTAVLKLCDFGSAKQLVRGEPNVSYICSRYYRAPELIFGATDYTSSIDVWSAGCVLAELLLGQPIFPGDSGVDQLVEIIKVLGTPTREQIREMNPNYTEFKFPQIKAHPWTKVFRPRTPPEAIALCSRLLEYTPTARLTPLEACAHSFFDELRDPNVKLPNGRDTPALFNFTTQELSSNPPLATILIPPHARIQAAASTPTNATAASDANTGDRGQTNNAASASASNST
# UniProt P14902, whole entry: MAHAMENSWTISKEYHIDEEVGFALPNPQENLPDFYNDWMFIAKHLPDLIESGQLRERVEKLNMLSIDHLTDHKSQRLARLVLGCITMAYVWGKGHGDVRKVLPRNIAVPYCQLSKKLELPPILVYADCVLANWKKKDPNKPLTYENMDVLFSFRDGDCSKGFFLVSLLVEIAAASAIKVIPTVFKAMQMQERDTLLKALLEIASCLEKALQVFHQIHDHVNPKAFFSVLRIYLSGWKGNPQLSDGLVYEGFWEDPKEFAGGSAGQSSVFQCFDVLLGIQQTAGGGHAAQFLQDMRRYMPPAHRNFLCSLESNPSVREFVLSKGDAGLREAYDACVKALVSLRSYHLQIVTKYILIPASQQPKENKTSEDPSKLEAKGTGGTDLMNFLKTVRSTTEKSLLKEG
# UniProt Q99685, whole entry: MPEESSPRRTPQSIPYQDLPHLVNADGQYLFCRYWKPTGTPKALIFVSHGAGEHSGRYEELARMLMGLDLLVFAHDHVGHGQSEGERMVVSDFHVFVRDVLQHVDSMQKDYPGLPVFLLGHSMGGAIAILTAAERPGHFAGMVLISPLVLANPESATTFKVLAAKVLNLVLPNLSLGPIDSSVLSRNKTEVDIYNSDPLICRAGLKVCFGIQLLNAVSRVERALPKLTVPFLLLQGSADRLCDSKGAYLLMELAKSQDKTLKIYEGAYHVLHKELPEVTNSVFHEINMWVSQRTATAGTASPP
# UniProt Q8TF76, whole entry: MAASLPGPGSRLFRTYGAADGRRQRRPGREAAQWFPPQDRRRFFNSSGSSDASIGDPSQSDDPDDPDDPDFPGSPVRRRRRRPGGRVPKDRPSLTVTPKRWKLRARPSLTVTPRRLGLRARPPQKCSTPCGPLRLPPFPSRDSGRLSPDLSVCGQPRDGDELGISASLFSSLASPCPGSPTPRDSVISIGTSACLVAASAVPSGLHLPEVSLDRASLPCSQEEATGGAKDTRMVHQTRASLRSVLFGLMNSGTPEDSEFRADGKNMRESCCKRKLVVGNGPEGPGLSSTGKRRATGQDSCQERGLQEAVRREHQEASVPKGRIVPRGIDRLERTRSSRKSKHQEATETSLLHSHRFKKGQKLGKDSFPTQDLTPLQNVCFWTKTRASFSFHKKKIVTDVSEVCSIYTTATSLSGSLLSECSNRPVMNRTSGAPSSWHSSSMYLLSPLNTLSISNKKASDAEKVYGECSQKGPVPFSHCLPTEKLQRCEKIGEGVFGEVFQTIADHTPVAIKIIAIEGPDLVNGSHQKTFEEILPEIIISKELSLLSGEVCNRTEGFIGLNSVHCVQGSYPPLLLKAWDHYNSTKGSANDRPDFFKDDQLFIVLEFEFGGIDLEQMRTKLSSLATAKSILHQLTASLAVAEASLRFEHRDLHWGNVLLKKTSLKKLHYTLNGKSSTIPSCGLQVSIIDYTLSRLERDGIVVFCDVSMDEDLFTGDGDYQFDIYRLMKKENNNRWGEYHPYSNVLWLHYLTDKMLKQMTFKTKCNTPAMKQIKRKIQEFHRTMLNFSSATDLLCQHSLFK
# UniProt Q96RJ0, whole entry: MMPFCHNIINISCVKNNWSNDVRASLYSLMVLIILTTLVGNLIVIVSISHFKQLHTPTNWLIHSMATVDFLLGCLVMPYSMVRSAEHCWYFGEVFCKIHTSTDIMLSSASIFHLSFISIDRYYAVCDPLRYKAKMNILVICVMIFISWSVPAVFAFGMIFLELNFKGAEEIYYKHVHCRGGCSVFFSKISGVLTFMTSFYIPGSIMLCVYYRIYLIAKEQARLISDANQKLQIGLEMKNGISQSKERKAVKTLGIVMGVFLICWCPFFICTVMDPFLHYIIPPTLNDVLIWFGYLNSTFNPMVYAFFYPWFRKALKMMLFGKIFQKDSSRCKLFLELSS
# UniProt O14757, whole entry: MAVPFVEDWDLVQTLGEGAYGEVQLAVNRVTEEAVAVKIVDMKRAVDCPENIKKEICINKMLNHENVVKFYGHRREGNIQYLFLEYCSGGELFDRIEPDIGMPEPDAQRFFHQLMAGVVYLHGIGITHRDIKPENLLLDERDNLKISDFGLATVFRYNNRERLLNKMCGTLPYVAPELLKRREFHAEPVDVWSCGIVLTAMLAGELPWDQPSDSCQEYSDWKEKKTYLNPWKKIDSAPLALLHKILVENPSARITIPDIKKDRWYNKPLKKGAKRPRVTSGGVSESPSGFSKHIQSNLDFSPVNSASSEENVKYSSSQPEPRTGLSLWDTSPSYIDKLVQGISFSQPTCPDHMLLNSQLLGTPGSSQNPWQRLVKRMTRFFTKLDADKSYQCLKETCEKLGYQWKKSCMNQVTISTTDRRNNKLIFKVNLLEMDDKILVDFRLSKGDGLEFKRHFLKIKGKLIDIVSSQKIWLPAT
# UniProt P46116, whole entry: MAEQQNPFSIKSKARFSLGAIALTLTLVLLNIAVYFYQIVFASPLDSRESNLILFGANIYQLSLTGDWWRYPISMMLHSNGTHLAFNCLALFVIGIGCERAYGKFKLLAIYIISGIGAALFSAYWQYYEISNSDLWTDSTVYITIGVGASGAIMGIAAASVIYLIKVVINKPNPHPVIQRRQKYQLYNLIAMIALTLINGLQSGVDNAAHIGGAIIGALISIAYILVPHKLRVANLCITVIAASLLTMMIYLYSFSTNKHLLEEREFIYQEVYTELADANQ
# Each line is one published result; not all experiments were run side by side. ± gives the spread as reported.
# ESR1: Estrogen receptor (ESR1, Homo sapiens, UniProt P03372)
# APP amyloid-beta peptide: Amyloid-beta precursor protein, amyloid-beta peptide (APP, Homo sapiens, UniProt P05067)
# Grm2: Metabotropic glutamate receptor 2 (Grm2, Rattus norvegicus, UniProt P31421)
# SYK with FCER1G: Tyrosine-protein kinase SYK, with FCER1G (SYK, Homo sapiens, UniProt P43405)
SMILES,target,test,test system,conditions,IC50 [µM]
CC(C)CNC(=O)CSc1nc2ccc(NC(=O)CSc3cccc(Cl)c3)cc2s1,ESR1,"reporter gene, antagonist",HEC-1 transfected ERα luciferase reporter,,20 to 50
CC(C)OC(=O)CCC(C(=O)/C=C/c1ccc(O)c(OC(F)(F)F)c1)C(=O)/C=C/c1ccc(O)c(OC(F)(F)F)c1,"Amyloid-beta precursor protein, Aβ aggregates (APP, Homo sapiens, UniProt P05067)","binding, thioflavin T competition",,,0.39
COc1cccc(C(=O)Nc2ccc(-c3nc4ccc(NC(=O)c5cccc(OC)c5)cc4s3)cc2)c1,"Moesin, with CD44 (Homo sapiens, UniProt P26038)","MSN-CD44 interaction, inhibitor, TR-FRET",,together with: CD44,> 100
C[C@H](NC(=O)c1cc(C(=O)O)cc([C@H]2CCN[C@@H]2C(=O)O)c1)C(=O)O,kainate receptor (rat),"binding, radioligand binding",rat cortical synaptosomes,together with: [3H]kainate,54
NS(=O)(=O)c1ccc(Cc2c(C3CCCC3)nn(-c3nc(C(=O)O)cs3)c2-c2ccccc2)cc1,"L-lactate dehydrogenase A chain (LDHA, Homo sapiens, UniProt P00338)","enzyme activity, inhibitor",,,6.7
N#Cc1ccc2[nH]cc(/C=C/c3ccccc3)c2c1,APP amyloid-beta peptide,"Aβ42 oligomerisation, ELISA",,,> 20
COc1ccc(-n2cc(C(N)=O)c(=O)c3cc(CCc4cnc(C)nc4)ccc32)cc1,Grm2,"calcium mobilization, negative allosteric modulator",,,0.136
Nc1cc(-c2ccc(C3(c4ccc(Cl)cc4)CCNCC3)cc2)ccn1,"Serine/threonine-protein kinase LATS2 (LATS2, Homo sapiens, UniProt Q9NRM7)","kinase activity, inhibitor, radiometric HotSpot",,together with: ATP 10 µM,0.111
O=C(c1ccc(O)c(Cl)c1)N1Cc2ccccc2C1,"Heat shock protein HSP 90-beta (HSP90AB1, Homo sapiens, UniProt P08238)","binding, fluorescence polarization",,together with: FITC-geldanamycin tracer,> 100
C=CC(=O)Nc1cc(Nc2ncnc(Nc3ccccc3F)n2)c(OC)cc1N(C)CCN(C)C,"Epidermal growth factor receptor (EGFR, Homo sapiens, UniProt P00533, L858R/T790M)","EGFR phosphorylation, inhibitor, MSD, item: phospho-EGFR",NCI-H1975 (EGFR L858R/T790M),,0.0039
COc1cc2nccc(Nc3ccc(OCc4ccc(C)cc4)cc3)c2cc1OC,"Serine/threonine-protein kinase N3 (PKN3, Homo sapiens, UniProt Q6P5Z2)","binding, split-luciferase",,,> 50
Cc1ccc(C(=O)Nc2ccc(-c3nc4ccccc4[nH]3)cc2)cc1,SYK with FCER1G,"protein binding, inhibitor, TR-FRET",,,> 100
Cc1ccc2oc(-c3c4c(N)n[nH]c(=O)c4nn3-c3ccc(F)cc3)c(C)c2c1,"Fibroblast growth factor receptor 1 (FGFR1, Homo sapiens, UniProt P11362)","kinase activity, inhibitor, ELISA",,,0.0501 ± 0.0218
C[C@H](N)c1nc2cc(-c3ccncc3F)sc2c(=O)[nH]1,"Cell division cycle 7-related protein kinase (CDC7, Homo sapiens, UniProt O00311)","enzyme activity, inhibitor",,,0.155 ± 0.00309
CC(C)NC(=O)CSc1nc2ccc(NC(=O)CSc3ccc4ccccc4c3)cc2s1,ESR1,"reporter gene, antagonist",HEC-1 transfected ERα luciferase reporter,,10
FC(F)(F)c1ccccc1CCN1CCN(c2cc(N3CCCC3)nc(N3CCCC3)n2)CC1,"Caspase-1 (CASP1, Homo sapiens, UniProt P29466)","enzyme activity, inhibitor",,"30 min preincubation, together with: Ac-WEHD-AMC 10 µM",0.197 ± 0.025
Cc1ccccc1C(C(=O)NC1CCCCC1)N(C(=O)Cn1ccnc1C)c1cccc([125I])c1 (racemic),"Isocitrate dehydrogenase [NADP] cytoplasmic (IDH1, Homo sapiens, UniProt O75874, R132H)","enzyme activity, inhibitor",,"racemate, together with: alpha-ketoglutarate substrate",< 0.05
NC(=O)c1cn(-c2ccc(F)cc2)c2ccc(CN3CCS(=O)(=O)CC3)cc2c1=O,Grm2,"calcium mobilization, negative allosteric modulator",,,0.87
O=C(NO)c1c(F)cccc1F,"Protein deacetylase HDAC6 (HDAC6, Homo sapiens, UniProt Q9UBN7)","enzyme activity, inhibitor, electrophoretic mobility shift",,together with: FAM-RHKK(Ac)-NH2 1 µM,18.9
Cc1c(N)cccc1C(=O)N1C[C@H](O)C[C@H]1C(=O)NCc1ccc(-c2cnco2)cc1,"von Hippel-Lindau disease tumor suppressor, with elongin B, C (VHL, Homo sapiens, UniProt P40337)","binding, fluorescence polarization",,"1% DMSO, together with: FAM-HIF1α peptide tracer",14 ± 0.7
N#Cc1cnc(Nc2nc3ccccc3o2)nc1-c1ccc(Cl)cc1Cl,"Metabotropic glutamate receptor 5 (Grm5, Rattus norvegicus, UniProt P31424)","calcium mobilization, negative allosteric modulator",,together with: glutamate EC80,0.666 ± 0.238
CC(C)(C)c1nc(-c2cccc(Nc3ncnn4ccc(CN5CCC(N)CC5)c34)c2)no1,"AP2-associated protein kinase 1 (AAK1, Homo sapiens, UniProt Q2M2I8)",,,,0.01
COC(=O)[C@@H]1C(c2nc3cc(C)ccc3o2)=Cc2cc3c(cc2[C@H]1c1cc(OC)c(OC)c(OC)c1)OCO3,"Tubulin alpha/beta heterodimer (Leishmania infantum, UniProt A0A381MCS3+A4HTR0)","tubulin polymerization, inhibitor",,"37 °C, together with: tubulin 1.2 mg/mL",16.1 ± 2.1
CN1CC[C@H](c2c(O)cc(O)c3c(=O)cc(-c4ccccc4F)oc23)[C@H](O)C1,"Glycogen synthase kinase-3 beta (GSK3B, Homo sapiens, UniProt P49841)",,,ATP at Km,> 1
CN1CCc2cc(Nc3cnn(C)c(=O)c3Cl)ccc2C1,"Nucleosome-remodeling factor subunit BPTF, bromodomain (BPTF, Homo sapiens, UniProt Q12830)","target engagement, inhibitor, NanoBRET displacement",HEK293T,,0.9 ± 0.2
CC1CCN(Cc2cc(Cl)c3cccnc3c2O)CC1,"Inward rectifier potassium channel 13 (KCNJ13, Homo sapiens, UniProt O60928, M125R)","potassium current, inhibitor, whole-cell patch clamp",,holding potential -120 mV,1.4
N#Cc1ccc2[nH]cc(/C=C/c3cccc([N+](=O)[O-])c3)c2c1,"Indoleamine 2,3-dioxygenase 1 (IDO1, Homo sapiens, UniProt P14902)","enzyme activity, inhibitor",,,> 100
O=C(Nc1ccc(-c2nc3ccccc3[nH]2)cc1)C1CCCC1,SYK with FCER1G,"protein binding, inhibitor, TR-FRET",,,> 100
N=C(N)NCCC[C@H](NC(=O)c1cc(C(=O)O)cc([C@H]2CCN[C@@H]2C(=O)O)c1)C(=O)O,kainate receptor (rat),"binding, radioligand binding",rat cortical synaptosomes,together with: [3H]kainate,10
Oc1cccc(/C=C/c2c[nH]c3ccc(F)cc23)c1,APP amyloid-beta peptide,"Aβ42 oligomerisation, ELISA",,,> 20
C[C@H](O)c1c(Cl)cncc1-c1cnc2c(c1)CCCN2C(N)=O,"Cyclin-dependent kinase 8, with cyclin C (CDK8, Homo sapiens, UniProt P49336)","binding, LanthaScreen Eu kinase binding",,,0.91
Cc1n[nH]c(C)c1CCOC(=O)c1cccc2c1oc(=O)n2C,"CD28, with B7 (Homo sapiens, UniProt P10747)","luciferase reporter gene, blocker",Jurkat with Raji cells,5 h,5.2 ± 1.3
O=C(Nc1cccc(Br)c1)C(NS(=O)(=O)c1cccs1)c1ccccc1 (centres unmarked),"Uracil nucleotide/cysteinyl leukotriene receptor, long isoform (GPR17, Homo sapiens, UniProt Q13304)","calcium mobilization, antagonist",1321-N1,,8.65 ± 1.29
O=C(OC(C(F)(F)F)C(F)(F)F)N1CC[C@H](OC(c2ccc(F)cc2)c2ccc(F)cc2)C1,"Monoglyceride lipase (MGLL, Homo sapiens, UniProt Q99685)","inhibitor, fluorescence",,together with: AHMMCE substrate,0.101 ± 0.0111
Cc1ccc(NC(=O)c2cccc(C(F)(F)F)c2)cc1N1Cc2cnc(Nc3cnn(C)c3)nc2N(C)C1=O,"Fibroblast growth factor receptor 4 (FGFR4, Homo sapiens, UniProt P22455)","enzyme activity, inhibitor, radiometric kinase",,,< 0.001
O=C(CCCCCn1c(=S)[nH]c2ccccc2c1=O)N1CCN(c2ccc(Cl)cc2)CC1,ESR1,"reporter gene, coactivator binding inhibitor, luciferase reporter",HEC-1 cells transfected with ERα,"partial inhibition, together with: estradiol 1 nM",9.3
CCC(C)N1c2ccccc2C(=O)Nc2cnc(Nc3ccc(C(=O)N4CCC(N5CCN(C)CC5)CC4)cc3OC)nc21 (centres unmarked),"Leucine-rich repeat serine/threonine-protein kinase 2 (LRRK2, Homo sapiens, UniProt Q5S007)","kinase activity, Adapta",,,1.59 ± 0.37
COc1ccc2nc3ccccc3c(SCCCN3C(=O)c4ccccc4C3=O)c2c1,"Serine/threonine-protein kinase haspin (HASPIN, Homo sapiens, UniProt Q8TF76)","inhibitor, TR-FRET",,together with: histone H3 peptide,8.8
COC(=O)C[C@@H]1N=C(c2ccc(Cl)cc2)c2c(sc(C(=O)NCCOCCNC(C)=O)c2C)-n2c(C)nnc21,"Bromodomain-containing protein 4, BD1 (BRD4, Homo sapiens, UniProt O60885)","binding, competitor, AlphaScreen",,together with: 20 nM His-BRD4,0.115
Cc1ccc(-c2cc(C(F)(F)F)c(C#N)c(SCC(=O)Nc3ccc(F)cc3)n2)cc1,"Trace amine-associated receptor 1 (TAAR1, Homo sapiens, UniProt Q96RJ0)",,,,> 10
NC(N)=NN=C1CCCc2cc(NC(=O)c3cc4cccc([N+](=O)[O-])c4[nH]3)ccc21,"Serine/threonine-protein kinase Chk1 (CHEK1, Homo sapiens, UniProt O14757)","kinase activity, inhibitor, IMAP fluorescence polarization",,,36
COC(C)(C)Cn1cc(-c2ccc3cc(OC4CC4)ccc3c2)c2c(N)ncnc21,"Proto-oncogene tyrosine-protein kinase Src (SRC, Homo sapiens, UniProt P12931)","enzyme activity, inhibitor, Kinase-Glo",,,> 10
COc1ccc(C2Oc3cc(O)cc(O)c3C(=O)C2C2C(=O)c3c(O)cc(O)cc3OC2c2ccc(O)cc2)cc1 (centres unmarked),"Rhomboid protease AarA (Providencia stuartii, UniProt P46116)","inhibitor, fluorogenic peptide substrate",,,9.4
CCCCCN(C)C(=O)Oc1ccccc1C=C1Cc2cc(OC)c(OC)cc2C1=O,"Cocaine esterase (CES2, Homo sapiens, UniProt O00748)",inhibitor,,"3 min preincubation, together with: fluorescein diacetate",0.0257 ± 0.00268

# For quick reference, copied from above:
SMILES,target,test,test system,conditions,IC50 [µM]
C[C@H](O)c1c(Cl)cncc1-c1cnc2c(c1)CCCN2C(N)=O,"Cyclin-dependent kinase 8, with cyclin C (CDK8, Homo sapiens, UniProt P49336)","binding, LanthaScreen Eu kinase binding",,,0.91
O=C(OC(C(F)(F)F)C(F)(F)F)N1CC[C@H](OC(c2ccc(F)cc2)c2ccc(F)cc2)C1,"Monoglyceride lipase (MGLL, Homo sapiens, UniProt Q99685)","inhibitor, fluorescence",,together with: AHMMCE substrate,0.101 ± 0.0111
NC(N)=NN=C1CCCc2cc(NC(=O)c3cc4cccc([N+](=O)[O-])c4[nH]3)ccc21,"Serine/threonine-protein kinase Chk1 (CHEK1, Homo sapiens, UniProt O14757)","kinase activity, inhibitor, IMAP fluorescence polarization",,,36
O=C(c1ccc(O)c(Cl)c1)N1Cc2ccccc2C1,"Heat shock protein HSP 90-beta (HSP90AB1, Homo sapiens, UniProt P08238)","binding, fluorescence polarization",,together with: FITC-geldanamycin tracer,> 100
N#Cc1ccc2[nH]cc(/C=C/c3ccccc3)c2c1,APP amyloid-beta peptide,"Aβ42 oligomerisation, ELISA",,,> 20
